Measured values pooled from the literature.
Numbered parts are unrelated; each lists some results of a single study. Positions count from the first letter of the parent shown.
Sequence of UniProt Q38831 (whole entry, looked up): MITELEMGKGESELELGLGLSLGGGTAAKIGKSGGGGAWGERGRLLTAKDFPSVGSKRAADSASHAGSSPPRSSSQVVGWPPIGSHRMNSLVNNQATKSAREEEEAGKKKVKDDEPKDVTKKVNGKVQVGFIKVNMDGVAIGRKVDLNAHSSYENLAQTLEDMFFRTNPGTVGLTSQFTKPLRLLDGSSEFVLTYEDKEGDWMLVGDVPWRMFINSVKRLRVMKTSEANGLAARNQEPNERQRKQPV
Sequence of UniProt Q9C8N7 (whole entry, looked up): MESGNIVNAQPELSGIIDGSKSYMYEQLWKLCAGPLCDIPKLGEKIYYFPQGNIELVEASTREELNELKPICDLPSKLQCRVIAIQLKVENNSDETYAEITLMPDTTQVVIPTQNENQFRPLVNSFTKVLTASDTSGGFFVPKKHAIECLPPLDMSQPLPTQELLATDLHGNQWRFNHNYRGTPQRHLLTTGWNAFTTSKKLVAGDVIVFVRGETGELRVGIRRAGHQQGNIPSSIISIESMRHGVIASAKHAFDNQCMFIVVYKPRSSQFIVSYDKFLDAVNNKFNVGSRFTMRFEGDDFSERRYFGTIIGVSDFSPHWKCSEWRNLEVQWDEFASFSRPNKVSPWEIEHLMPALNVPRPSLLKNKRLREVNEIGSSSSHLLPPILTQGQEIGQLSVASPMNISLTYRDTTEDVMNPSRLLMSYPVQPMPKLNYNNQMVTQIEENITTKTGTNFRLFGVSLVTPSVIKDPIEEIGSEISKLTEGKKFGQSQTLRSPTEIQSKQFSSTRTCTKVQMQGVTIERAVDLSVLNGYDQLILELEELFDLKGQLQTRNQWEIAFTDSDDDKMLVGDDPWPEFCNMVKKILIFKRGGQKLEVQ
Sequence of UniProt Q9C966 (whole entry, looked up): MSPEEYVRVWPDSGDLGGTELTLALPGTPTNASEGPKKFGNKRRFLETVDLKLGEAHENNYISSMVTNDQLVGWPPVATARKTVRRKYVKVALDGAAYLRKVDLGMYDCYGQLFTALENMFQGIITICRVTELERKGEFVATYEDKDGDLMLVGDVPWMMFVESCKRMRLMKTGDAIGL
Sequence of UniProt Q94JM3 (whole entry, looked up): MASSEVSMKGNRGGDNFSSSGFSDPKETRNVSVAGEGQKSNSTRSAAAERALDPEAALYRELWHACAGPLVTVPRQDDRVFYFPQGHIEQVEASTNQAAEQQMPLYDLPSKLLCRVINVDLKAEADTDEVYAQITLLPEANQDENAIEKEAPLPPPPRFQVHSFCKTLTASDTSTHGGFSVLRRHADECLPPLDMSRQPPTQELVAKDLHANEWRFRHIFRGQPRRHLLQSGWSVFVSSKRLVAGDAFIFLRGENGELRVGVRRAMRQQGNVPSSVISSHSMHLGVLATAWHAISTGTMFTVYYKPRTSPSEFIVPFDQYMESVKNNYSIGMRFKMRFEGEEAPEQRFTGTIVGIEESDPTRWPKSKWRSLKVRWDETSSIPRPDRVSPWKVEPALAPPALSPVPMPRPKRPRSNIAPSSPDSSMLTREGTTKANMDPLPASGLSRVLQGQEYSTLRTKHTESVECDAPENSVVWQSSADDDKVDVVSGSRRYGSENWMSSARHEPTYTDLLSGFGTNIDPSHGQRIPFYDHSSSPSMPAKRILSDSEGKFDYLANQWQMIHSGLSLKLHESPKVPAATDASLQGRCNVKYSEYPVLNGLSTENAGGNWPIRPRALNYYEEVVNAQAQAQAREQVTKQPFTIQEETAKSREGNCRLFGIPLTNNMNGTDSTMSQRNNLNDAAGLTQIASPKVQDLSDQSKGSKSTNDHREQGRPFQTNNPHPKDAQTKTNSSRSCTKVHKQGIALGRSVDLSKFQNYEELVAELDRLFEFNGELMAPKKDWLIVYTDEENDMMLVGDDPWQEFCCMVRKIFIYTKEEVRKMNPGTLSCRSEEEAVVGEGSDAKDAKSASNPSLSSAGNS

Block 1
Target: Ras GTPase-activating protein-binding protein 1, full length (G3BP1, Homo sapiens, UniProt Q13283)
Sequence of UniProt Q13283 (whole entry, looked up): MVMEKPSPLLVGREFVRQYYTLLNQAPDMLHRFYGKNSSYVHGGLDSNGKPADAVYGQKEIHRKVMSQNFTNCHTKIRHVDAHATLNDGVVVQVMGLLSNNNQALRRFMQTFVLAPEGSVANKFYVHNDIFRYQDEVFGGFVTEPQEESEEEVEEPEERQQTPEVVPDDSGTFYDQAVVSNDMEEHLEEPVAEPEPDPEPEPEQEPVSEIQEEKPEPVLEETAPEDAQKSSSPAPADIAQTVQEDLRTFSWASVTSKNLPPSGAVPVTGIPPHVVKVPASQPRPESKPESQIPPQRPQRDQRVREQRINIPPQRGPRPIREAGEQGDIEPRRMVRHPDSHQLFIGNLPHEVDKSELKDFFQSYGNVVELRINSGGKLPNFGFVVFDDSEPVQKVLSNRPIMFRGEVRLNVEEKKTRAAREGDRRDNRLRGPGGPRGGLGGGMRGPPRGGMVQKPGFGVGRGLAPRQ
Method: RNA Bind-n-Seq
Molecule type: RNA
Medium: in vitro
Concentration: 200 nM
Setting: whole 134-nt RNA, ends assumed
Added: 150 mM KCl
Baseline: input library
Direction: higher = stronger binding
Shared flanks, not repeated: GGGAGUUCUACAGUCCGACGAUC … UGGAAUUCUCGGGUGUCAAGG
Sequence | log2 enrichment
UUCCCUGUACCGGCAGAGUUCACAAACACAUUUGAAGAGGCUUUUUCUCAGGAUUCUUAACCUUCCCAAAGGAAGUCCCAUGGAUGGGUU | -1.19
CUGUGCUACACAUCGUAUGUACCGAAUCGGGGCCCCCCGGGGCCCCCCGGGGCCCCCCGGGGAAAGUAUUAUGUUACGCCGUUCGGAUCU | -1.55
CUUUGUAAUGGGAACUGCCUCUUUCCUGUUGUUGUUAAUGAAAAUGUCAGAAACCAGUUAUGUGAAUGAUCUCUCUGAAUCCUAAGGGCU | -0.162
CUUGACCCUCAACACCAACCAUGGGCAUAUCCUGGUGGAUUACUCCAAGAACCUGGUGACGGAGGACGUGAUGCGGAUGCUGGUGGACUU | -1.41
UGUCUCGAGCAGGGGACAAGACGUUCGAGGAGUACCUGGAUGAGUAUUACCGGCUGGACUACGAGGACAUCAUCGACGACCUGCCCUGUC | -0.599
UCCUGUGCUACACAUCGUAUGUACCGAAUCGGGUUUUUUGGGUUUUUUGGGUUUUUUGGAAAGUAUUAUGUUACGCCGUUCGGAUCUGCA | -0.444
CACAGACAACACGCACCCACACAGACACAGAGGGAAGGAAAUGGGAUGGGGACAGGGUGCACAGCAGGGCGGGGUAGGACCCCAGCCCCU | 1.66
CCUCAAGUCCUGUGCUACACAUCGUAUGUACCGAAUCGGAAAGGUGGAAAGGAAAGUAUUAUGUUACGCCGUUCGGAUCUGCACUUCCAG | -0.321
UGUGGACGACAAUGAGGAGACCAUCAAAAAGCGGCUGGAGACCUAUUACAAGGCCACAGAACCUGUCAUCGCCUUCUAUGAGAAACGUGG | -0.753
ACCAUGCAGGUGGGCAUCUUUGGGAAGUGGGGCAAGGGGGGGAUAGGGAGGGGGGUAACACUUUGGGAACAGGUGGUCCUAGGUCGUUUC | 1.42
AUGAAGAUGAAGAAGAGGAUGAUGAGGACGAGGAUGACGACGACGACGAAGAUGAUGAAGAUGAUGAUGAUGAAGAUGAUGAGGAGGAGG | 1.09
UUUCUUCCCCCACAGUUCAUCCAUGAGCUCGGAUUUCCCACAUUACAACUUCAGGAUGCCUAAUAUUGGAUUCCAGAAUCUGCCUCUCAA | 1.12
CAAGUCCUGUGCUACACAUCGUAUGUACCGAAUCGGGCCCCGGCCCCGGCCCCGGGAAAGUAUUAUGUUACGCCGUUCGGAUCUGCACUU | -0.812
CACAGACAACACGCACCCACACAGACACAGAGGGAAGGGGUUGAAAUGGGGACAGGGUGCACAGCAGGGCGGGGUAGGACCCCAGCCCCU | 1.25

Block 2
Molecule: B1 (IAA3)
Method: two-hybrid
Baseline: out of 4 tests
Direction: higher = firmer interaction
B1: IAA3 (Arabidopsis thaliana, UniProt Q38822); chain MDEFVNLKETELRLGLPGTDNVCEAKERVSCCNNNNKRVLSTDTEKEIESSSRKTETSPPRKAQIVGWPPVRSYRKNNIQSKKNESEHEGQGIYVKVSMDGAPYLRKIDLSCYKGYSELLKALEVMFKFSVGEYFERDGYKGSDFVPTYEDKDGDWMLIGDVPWEMFICTCKRLRIMKGSEAKGLGCGV
partner | positive tests
ARF22 498-598 (Arabidopsis thaliana, UniProt Q9C8N7) | 0
IAA15 (Arabidopsis thaliana, UniProt Q9C966) | 4
IAA13 (Arabidopsis thaliana, UniProt Q38831) | 2
ARF2 727-859 (Arabidopsis thaliana, UniProt Q94JM3) | 0

Block 3
Target: Centromere-binding protein 1, full length, His-tagged (CBF1, Saccharomyces cerevisiae, UniProt P17106, residues 1-351)
Sequence of UniProt P17106 (whole entry, looked up): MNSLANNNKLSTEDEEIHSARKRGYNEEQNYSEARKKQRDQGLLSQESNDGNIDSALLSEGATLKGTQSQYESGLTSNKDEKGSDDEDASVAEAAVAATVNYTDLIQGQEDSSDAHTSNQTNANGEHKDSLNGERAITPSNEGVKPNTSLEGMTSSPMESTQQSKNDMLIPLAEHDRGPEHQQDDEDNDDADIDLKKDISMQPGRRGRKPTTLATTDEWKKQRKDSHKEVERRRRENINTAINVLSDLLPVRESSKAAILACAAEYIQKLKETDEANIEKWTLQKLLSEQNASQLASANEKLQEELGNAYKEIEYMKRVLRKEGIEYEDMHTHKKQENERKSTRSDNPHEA
Method: competition protein-binding microarray
Molecule type: double-stranded DNA, one strand shown
Medium: in vitro
Concentration: 2 µM
Setting: whole 60-bp probe, lowest competitor level
Added: Pho4 competitor, 0.05 µM
Direction: higher = stronger binding
Shared flanks, not repeated: … GTCTTGATTCGCTTGACGCTGCTG
Sequence | fluorescence intensity [a.u.]
TGCGCAACAACTTGTCACAGCACTTTATGTCTAGAA | 79.5
GTCTGCAAGTTTCTGCCCGTGCTTTTGTGTACCAAT | 79.5
CATACCCAACCTTGACCTGTGGGTGAAGATATTTGT | 66.6
CGTCCTAGTGATTTTCACGTGTTGTCCATGAGGAAG | 1080
TGCGCAACAACTTGGTTAGTGGGTGTATGTCTAGAA | 66.3
CTGAAAAGATTTCGGCACATGGTCTTGGGACCAGAG | 180
AATACACACAACTCAAACGTGTATAAACGACTTTAT | 97.5
CAGGAGAACTTGCATCATGTGGTGTTCTTCCGAGAT | 254
GCTGCTTTACAAGAACACATGAAAAATCCAGAAGTA | 101
CATACCCAACCTTTTCACGTGATCTAAGATATTTGT | 6580
CCGATGACGAGTTGGTCCGTGATGGCGGAACTAACT | 68
TTACCCGGTACGAGTCACGTGATGGAGGTGCATTGG | 16400
CTAACGAAGGTTTGCGCTGTGGGTGACAAGCCAAGT | 66.2
CTCTTTTCGCGGAGCCGCATGCAAGGCTACATTAAA | 76.8
CTTTGCCGAACCCATCACGGCATAACCTGCAGAATA | 70.8
CGGGGTTAAGTTTGGCGAGTGGGTGGCTTGCAGCAG | 68
CATACCCAACCTTGTCTCGTGGGTGAAGATATTTGT | 109
GTCTTGTCTCATTTTCACGTGGTTTTCCCCACTTCA | 1000

Block 4
Target: ABI1, truncated, D143A, DHFR fusion (Arabidopsis thaliana)
Method: DHFR PCA, deep sequencing
Medium: yeast
Setting: methotrexate growth selection, single substitutions
Added: (+)-ABA 0.032 µM
Baseline: wild-type fitted maximum
Direction: higher = stronger binding
Starting sequence: PYL1, truncated, DHFR fusion (Arabidopsis thaliana); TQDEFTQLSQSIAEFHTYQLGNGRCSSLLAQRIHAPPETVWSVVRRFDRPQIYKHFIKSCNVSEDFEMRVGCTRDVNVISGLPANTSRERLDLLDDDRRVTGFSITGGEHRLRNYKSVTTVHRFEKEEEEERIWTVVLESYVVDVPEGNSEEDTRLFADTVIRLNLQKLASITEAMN
Substitution | relative binding score [%]
E130W | 5.67
E38N | -1.26
I162K | 2.4
V137T | -0.727
S27A | 5.22
M68C | 2.61
V161T | 10.8
A35C | 5.23
L93V | 35.3
T6C | 18.7
N85A | 53.1
E64P | 47.8
V44A | 4.21
E128I | 7.5
E131C | 39.2
E151S | 22.8
N149Q | 50.5

Block 5
Target: CCNF, cyclin fold, Cln2 fusion (human)
Method: yeast growth competition, sequencing
Medium: yeast
Setting: strong parent motif
Baseline: not given
Direction: higher = stronger binding
Starting sequence: RB1 docking peptide (human); PKPLKKLRFDIEG; partner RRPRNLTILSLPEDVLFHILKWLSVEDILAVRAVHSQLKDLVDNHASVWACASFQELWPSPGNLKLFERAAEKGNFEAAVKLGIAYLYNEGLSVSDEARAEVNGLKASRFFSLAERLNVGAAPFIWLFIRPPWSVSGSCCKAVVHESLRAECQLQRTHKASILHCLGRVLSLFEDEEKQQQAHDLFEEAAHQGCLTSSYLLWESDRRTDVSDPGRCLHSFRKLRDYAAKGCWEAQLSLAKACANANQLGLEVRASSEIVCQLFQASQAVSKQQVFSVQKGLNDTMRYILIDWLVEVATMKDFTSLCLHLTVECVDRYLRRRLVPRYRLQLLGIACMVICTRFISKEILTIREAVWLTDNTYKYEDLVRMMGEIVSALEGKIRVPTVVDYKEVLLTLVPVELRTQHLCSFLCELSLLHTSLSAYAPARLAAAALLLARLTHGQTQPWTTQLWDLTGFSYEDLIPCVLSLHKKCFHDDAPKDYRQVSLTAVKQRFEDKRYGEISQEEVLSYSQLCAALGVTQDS
Substitution | normalised enrichment score
L7A | 0.623
D10M | 2.33
G13Y | -0.124
R8A | 1.16
E12C | 2.39
K5S | 2.2
P1S | 0.938
F9R | 0.449
P1I | 0.695
K5L | 0.591
P1D | 3.22
P3Y | 1.14
R8M | 1.09
E12K | 0.985
K5C | 1.05
